Earlier results as cited in several papers.
Compare with care: the assays were run in different laboratories. ± gives the spread as reported.
UniProt C7C422, sequence (whole entry, looked up): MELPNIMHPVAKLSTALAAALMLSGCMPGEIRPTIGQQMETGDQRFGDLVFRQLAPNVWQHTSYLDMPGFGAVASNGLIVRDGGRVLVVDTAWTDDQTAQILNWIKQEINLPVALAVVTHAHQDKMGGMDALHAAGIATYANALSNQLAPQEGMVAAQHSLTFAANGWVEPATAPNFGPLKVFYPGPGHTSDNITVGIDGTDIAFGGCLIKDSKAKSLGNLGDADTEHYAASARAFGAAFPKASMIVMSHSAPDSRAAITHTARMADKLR
UniProt P19754, sequence (whole entry, looked up): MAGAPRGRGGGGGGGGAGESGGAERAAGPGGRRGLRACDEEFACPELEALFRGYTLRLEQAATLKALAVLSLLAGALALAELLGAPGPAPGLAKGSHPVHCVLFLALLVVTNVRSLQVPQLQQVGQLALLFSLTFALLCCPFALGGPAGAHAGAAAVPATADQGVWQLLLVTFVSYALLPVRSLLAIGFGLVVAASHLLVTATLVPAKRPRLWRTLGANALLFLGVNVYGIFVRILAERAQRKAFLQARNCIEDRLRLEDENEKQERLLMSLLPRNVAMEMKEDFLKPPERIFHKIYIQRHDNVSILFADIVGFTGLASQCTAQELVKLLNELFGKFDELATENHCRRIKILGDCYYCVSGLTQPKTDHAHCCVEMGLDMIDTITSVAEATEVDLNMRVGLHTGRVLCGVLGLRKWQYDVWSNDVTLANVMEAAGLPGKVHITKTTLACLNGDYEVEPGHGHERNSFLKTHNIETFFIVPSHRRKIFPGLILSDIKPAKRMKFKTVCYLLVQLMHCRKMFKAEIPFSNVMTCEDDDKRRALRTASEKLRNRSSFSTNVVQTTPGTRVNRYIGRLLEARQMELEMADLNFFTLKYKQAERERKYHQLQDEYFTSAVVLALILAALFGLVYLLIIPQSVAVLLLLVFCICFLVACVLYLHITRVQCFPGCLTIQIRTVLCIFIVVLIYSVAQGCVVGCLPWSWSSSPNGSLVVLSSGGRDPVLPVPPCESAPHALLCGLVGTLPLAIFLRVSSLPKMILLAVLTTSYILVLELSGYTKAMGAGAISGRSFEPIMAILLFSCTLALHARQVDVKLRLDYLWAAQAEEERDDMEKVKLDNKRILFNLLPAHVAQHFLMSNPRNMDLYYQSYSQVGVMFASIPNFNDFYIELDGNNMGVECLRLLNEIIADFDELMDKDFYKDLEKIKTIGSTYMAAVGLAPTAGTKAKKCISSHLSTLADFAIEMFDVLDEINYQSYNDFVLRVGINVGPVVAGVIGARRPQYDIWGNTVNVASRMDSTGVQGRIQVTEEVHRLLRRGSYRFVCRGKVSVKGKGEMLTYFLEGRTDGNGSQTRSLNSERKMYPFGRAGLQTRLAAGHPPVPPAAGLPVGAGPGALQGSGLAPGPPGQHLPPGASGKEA

`O=C1N[C@@H](Cc2ccccc2)C(=O)N2CCC[C@@H]2C(=O)N[C@@H](Cc2ccccc2)C(=O)N[C@H]1Cc1c[nH]c2ccccc12` gave a Ki of 619 ± 87 nM (MOR opioid receptor; binding).
With `Nc1ccccc1C(=O)O[C@H]1[C@@H](O)[C@H](n2cnc3c(=O)[nH]cnc32)O[C@@H]1COP(=O)(O)O` the Ki was 7400 ± 1200 nM (ADCY1 (Bos taurus, UniProt P19754); enzyme activity, inhibitor; Sf9 membranes; with: 5 mM MnCl2 and 100 µM forskolin).
With `COC(=O)C1C(OC(c2ccc(Cl)cc2)c2ccc(Cl)cc2)CC2CCC1N2C` (single isomer, unassigned) the Ki was 528 ± 39 nM (serotonin transporter).
`CC1(C)S[C@@H]2CS[C@@H](CS)N2[C@H]1C(=O)O` has a Ki of 12000 ± 1000 nM (blaNDM-1 (Klebsiella pneumoniae, UniProt C7C422); inhibitor).
`CCCC[C@@H](C(=O)N[C@@H](CC(=O)O)C(=O)N[C@@H](Cc1ccccc1)C(N)=O)N(C)C(=O)[C@@H](Cc1c[nH]c2ccccc12)NC(=O)CNC(=O)[C@@H](Cc1ccccc1)NC(=O)[C@@H](N)Cc1ccc(O)cc1` gave a Ki of 5.7 nM (µ-opioid receptor; binding).
For `CCN1CCCC1CNC(=O)c1cc(Br)cc(OC)c1OC` (centres unmarked) [carbon-11 labelled], the Ki was 0.65 nM (dopamine D2long receptor; with: [3H]spiperone).
The Ki of `O=C(O)[C@H]1CS[C@@H]2CS[C@@H](CS)N12` is reported as 3200 ± 400 nM (VIM-2 (Escherichia coli, UniProt Q5U7L7); inhibitor).
`C=CC(=O)N1CCC[C@@H](n2nc(-c3cn(C)c4ccccc34)c3c(N)ncnc32)C1` gave a Ki of 25 ± 7.2 nM (EGFR (Homo sapiens, UniProt P00533)).

A few entries again:
`O=C1N[C@@H](Cc2ccccc2)C(=O)N2CCC[C@@H]2C(=O)N[C@@H](Cc2ccccc2)C(=O)N[C@H]1Cc1c[nH]c2ccccc12` gave a Ki of 619 ± 87 nM (MOR opioid receptor; binding).
